Assay results from different studies.
Protocols differ between the studies behind these lines. Values joined by “and” are separate records of one study, mostly repeats; a detail may differ. ± marks the error that the study gave.
Urease: Urease (Canavalia ensiformis, UniProt P07374)

Compound	tested on	assay	system	setting	endpoint	result
CN(Cc1ccccc1)CP(C)(=O)O	Urease	inhibitor		pH 7	IC50	> 1000 µM
N#Cc1ccc(NC(=O)c2cccc(CC3CCCCC3)n2)c(Cc2ccccc2)c1	Capsid scaffolding protein, protease domain (Human herpesvirus 8 type P, UniProt Q2HRB6)			pH 8	IC50	no inhibition
CN[C@](C)(C[18F])C(=O)O	SK-OV-3 tumour model		host not given, blood	1 h, tumour-bearing	tracer uptake	1.2 %ID/g
N#Cc1cc(C(=O)c2ccc3ccccc3c2O)c[nH]c1=O	PTGS2 (Ovis aries, UniProt P79208)	enzyme activity, inhibitor, ELISA			IC50	27.9 µM
N#Cc1cn([C@@H]2O[C@H](CSCC[C@H](N)C(=O)O)[C@@H](O)[C@H]2O)c2ncnc(N)c12	PRMT6 (Homo sapiens, UniProt Q96LA8)	enzyme activity, inhibitor, radiometric			IC50	1 µM
CC[C@@H]1C(=O)N(C)c2cnc(Nc3ccc(C(=O)NCCCC[C@H](NC(=O)[C@@H](NC(=O)[C@H](CO)NC(=O)[C@H](Cc4cncn4CCCCCCCCc4ccccc4)NC(=O)[C@H](CC(C)C)NC(=O)[C@@H]4CCCN4C(C)=O)[C@@H](C)OP(=O)(O)O)C(N)=O)cc3OC)nc2N1C1CCCC1	PLK3 (Homo sapiens, UniProt Q9H4B4)	enzyme activity, inhibitor			IC50	0.021 µM
Cc1cc(S(=O)(=O)Nc2ncccn2)c(F)cc1N(C)C1CCN([C@H](C)c2ccccc2)CC1	SCN8A (Homo sapiens, UniProt Q9UQD0, R1626A)	ion current, inhibitor, patch clamp		R1626A mutant	IC50	166 µM
CCOC(=O)CC(NC(=O)Nc1ccc(NC(=O)NC(CC(=O)OCC)C2OC3OC(C)(C)OC3C2OCc2ccccc2)cc1)C1OC2OC(C)(C)OC2C1OCc1ccccc1 (stereo not drawn)	DNA ligase 1 (Homo sapiens, UniProt P18858)	enzyme activity, inhibitor, radiometric			IC50	94 µM
COCC1CCCCN1C(=O)n1cc(C(O)(c2ccccc2)c2ccccc2)nn1 (stereo not drawn)	sn-1-specific diacylglycerol lipase ABHD11 (Mus musculus, UniProt Q8K4F5)	enzyme activity in cells, inhibitor			IC50	0.00014 to 0.00017 µM
CC(C)=CCC[C@](C)(O[C@@H]1O[C@H](CO)[C@@H](O)[C@H](O)[C@H]1O)[C@H]1CC[C@]2(C)[C@@H]1[C@H](O)C[C@@H]1[C@@]3(C)CC[C@H](O)C(C)(C)[C@@H]3CC[C@]12C	GABRR1 (Homo sapiens, UniProt P24046)	ion current, two-electrode voltage clamp		oocytes	IC50	52.1 µM
CN(C)S(=O)(=O)c1cc(O)c(O)c2c1CN(Cc1ccc(F)c(Cl)c1)C2=O	Gag-Pol polyprotein, integrase (gag-pol, Human immunodeficiency virus 1, UniProt P12497)	strand transfer, inhibitor, gel-based		recombinant wild-type integrase	IC50	0.077 ± 0.004 µM
CC(C)[C@H](NC(=O)c1ccc(CNc2nc3c(c(=O)[nH]2)CCC3)cc1)C(=O)NC1COC1	MMP1 (Homo sapiens, UniProt P03956)	enzyme activity, inhibitor			IC50	> 5 µM
F[P-](F)(F)(F)(F)F.OCP(CO)CO.OCP(CO)CO.OCP(CO)CO.OCP(CO)CO.[Cu+]	PSMB6/PSMB5/PSMB7 (Homo sapiens, UniProt P28072+P28074+Q99436)	chymotrypsin-like activity	26S proteasome from LoVo cells		IC50	23 µM
Cc1cc(OCc2ccncc2)nc2sc(C(=O)NCc3cc(F)ccc3F)c(N)c12	HRH3 (Homo sapiens, UniProt Q9Y5N1)	receptor activity, antagonist			IC50	~10 µM
N=C(N)NCCC[C@@H]1NC(=O)[C@H](CCCCNC(=O)CC(CC(=O)NCCCCNC(=O)CCCCCCC(=O)NCCCC[C@H](NC(=O)N[C@@H](CCC(=O)O)C(=O)O)C(=O)O)NC(=O)CN2CCN(CC(=O)O)CCN(CC(=O)O)CCN(CC(=O)O)CC2)NC(=O)[C@@H](Cc2ccccc2)NC(=O)[C@H](CC(=O)O)NC(=O)CNC1=O (stereo partly drawn)	FOLH1 (Homo sapiens, UniProt Q04609)	enzyme activity, inhibitor, fluorescence			IC50	0.047 µM
C[C@@H]1O[C@@H](Oc2c(-c3ccc(O)c(O)c3)oc3cc(O)cc(O)c3c2=O)[C@H](O)[C@H](O)[C@H]1O	CHRNA7 (Homo sapiens, UniProt P36544)	ion current, antagonist, two-electrode voltage clamp		oocytes	IC50	56.4 µM
O=C1C(O)=C(Nc2ccc(Cl)cc2)C(=O)c2ccccc21	DHODH (Homo sapiens, UniProt Q02127)	enzyme activity, inhibitor, absorbance			IC50	0.36 µM
CC(=O)N[C@H]1[C@@H](OC[C@H](NC(=O)CNC(=O)[C@@H]2CCCN2C(=O)[C@H](C)NC(=O)[C@@H]2CCCN2C(=O)[C@@H](N)CCCNC(=N)N)C(=O)N[C@H](C(=O)N[C@@H](C)C(=O)N2CCC[C@H]2C(=O)N2CCC[C@H]2C(=O)N[C@@H](C)C(=O)N[C@@H](Cc2c[nH]cn2)C(=O)NCC(=O)O)[C@@H](C)O)O[C@H](CO)[C@H](O)[C@@H]1O	mouse monoclonal antibody	antibody binding, inhibitor, competition ELISA		1 h	IC50	2.89 µM
N#Cc1nccc(N2CCNCC2)n1	Phosphatidylinositol 3,4,5-trisphosphate 5-phosphatase 1, Ptase-C2 domains (INPP5D, Homo sapiens, UniProt Q92835)	enzyme activity, inhibitor			IC50	91.9 µM
Nc1nc2c(c(=O)[nH]1)[n+](Cc1cccc(S(=O)(=O)F)c1)cn2[C@@H]1O[C@H](COP(=O)(O)O)[C@@H](O)[C@H]1O	NT5C3B (Homo sapiens, UniProt Q969T7)	m7GMP dephosphorylation, inhibitor, malachite green		1 h preincubation, pH 7.5, 30 °C, together with: m7GMP 100 µM	IC50	> 50 µM

Compound	tested on	assay	system	setting	endpoint	result
N#Cc1ccc(NC(=O)c2cccnc2)cc1Cl	EGFR (Homo sapiens, UniProt P00533)	enzyme activity, Kinase-Glo luminescence			IC50	2.87 ± 1.12 µM
CC(=O)Nc1ccc2ccn(-c3cc(NS(=O)(=O)c4ccccc4)n4ncc(C#N)c4n3)c2c1	CSNK2A2 (Homo sapiens, UniProt P19784)	target engagement in cells, BRET			IC50	1.26 µM
CC(NC(=O)CO)c1cc(Cl)ccc1Cl (stereo not drawn)	Urease	enzyme activity, inhibitor, absorbance			IC50	12.5 µM
COC(=O)C=CCCC(NC(=O)c1ccncc1C(=O)O)C(=O)NC(C(=O)N1CC(=O)CC1C(=O)NC(C(=O)NC(C(N)=O)C1CCCCC1)C1CCCCC1)C(C)(C)C (stereo not drawn)	Protein-glutamine gamma-glutamyltransferase 6 (Homo sapiens, UniProt O95932)	enzyme activity, inhibitor			IC50	0.017 µM
Cc1cc(Nc2cc(CN(C)C)cc(NC(=O)c3cc(CN(C)C)cc(Nc4ccnc5ccccc45)c3)c2)nc(N)n1	NEIL2 (Homo sapiens, UniProt Q969S2)	enzyme activity, inhibitor			IC50	0.3 to 0.6 µM
CC[C@H](C)[C@H](NC(=O)[C@H](Cc1ccc(O)cc1)NC(=O)[C@H](CCC(=O)O)NC(=O)[C@H](Cc1c[nH]c2ccccc12)NC(=O)[C@H](CO)NC(=O)[C@H](CO)NC(=O)CNC(=O)CNC(=O)[C@H](CC(=O)O)NC(=O)[C@@H](N)CCC(=O)O)C(=O)N[C@@H](Cc1c[nH]c2ccccc12)C(=O)N[C@H](C(=O)N[C@@H](CC(C)C)C(=O)N1CCC[C@H]1C(=O)N[C@@H](CO)C(=O)NCC(=O)O)[C@@H](C)O	Moesin, with CD44 (Homo sapiens, UniProt P26038)	CD44 peptide binding, TR-FRET		together with: CD44 peptide	IC50	~0.22 µM
C[C@@](Cc1ccccc1)(NC(=O)[C@@H]1CCCN1C(=O)[C@H](CO)NC(=O)[C@H](Cc1ccccc1)NC(=O)CNC(=O)[C@@H]1CCCN1C(=O)[C@@H]1CCCN1C(=O)[C@@H](N)CCCNC(=N)N)C(=O)N[C@@H](CCCNC(=N)N)C(=O)O	BDKRB2 (Homo sapiens, UniProt P30411)	ligand displacement, radioligand			IC50	0.074 µM
CCCN1CCc2cccc3c2[C@H]1Cc1ccc(O)c(O)c1-3	Carbamate kinase (Giardia intestinalis, UniProt A8BB85)	enzyme activity, ATP luminescence			IC50	10.3 µM
CC(C)C[C@H](NC(=O)[C@@H](NC(=O)[C@H](CCC(N)=O)NC(=O)CNC(=O)[C@H](CO)NC(=O)[C@H](Cc1ccccc1)NC(=O)[C@@H](N)CC(C)C)C(C)C)C(=O)O	ACE (Homo sapiens, UniProt P12821)	enzyme activity, inhibitor, HPLC			IC50	647 µM
COc1c(OCCOCCOCCOCCOCCOCCOc2cccc(C(=O)C3CCN(CCc4ccc(F)cc4)CC3)c2OC)cccc1C(=O)C1CCN(CCc2ccc(F)cc2)CC1	HTR2A (Homo sapiens, UniProt P28223)	phosphorylation in cells, antagonist			IC50	0.164 µM
COc1ccccc1-c1nc2sc3c(c2c(=O)o1)CCC3	Procathepsin L (CTSL, Homo sapiens, UniProt P07711)	enzyme activity, inhibitor, FRET			IC50	> 100 µM
CSCC[C@@H]1NC(=O)[C@H](Cc2c[nH]c3ccccc23)NC(=O)[C@H](CCCNC(=N)N)NC(=O)[C@H](Cc2c[nH]c3ccccc23)NC(=O)[C@H](CCCNC(=N)N)NC(=O)[C@H](C)NC(=O)[C@@H](NC(=O)[C@@H](N)C(C)C)CSCC(=NOCC(=O)NCP(=O)(Oc2ccccc2)Oc2ccccc2)CSC[C@@H](C(=O)NCC(N)=O)NC(=O)[C@@H]2CCCN2C1=O	Fluorophosphonate-binding serine hydrolase F (Staphylococcus aureus, UniProt Q2FUY3)	inhibitor		1 h preincubation, together with: 4-methylumbelliferyl heptanoate	IC50	0.879 µM
CCCCCCCCCC(=O)N[C@@H](CCCNC(=N)N)C(=O)N[C@H](C(=O)N[C@@H](CCCCN)C(=O)N[C@@H](CCCNC(=N)N)C(=O)CCl)C(C)C	Furin (FURIN, Homo sapiens, UniProt P09958)	enzyme activity, inhibitor			IC50	0.000794 µM
Cc1cccc(-c2nc(Nc3ccncn3)c3c(C)csc3n2)n1	Cytochrome P450 2D6 (CYP2D6, Homo sapiens, UniProt P10635)	inhibitor			IC50	3.5 µM
CC(=O)N[C@@H](Cc1ccccc1)C(=O)N[C@@H](CC(C)C)C(=O)N[C@H](C(=O)N[C@@H](CC(=O)O)C(=O)CCl)[C@@H](C)O	Caspase-1 (CASP1, Homo sapiens, UniProt P29466)	enzyme activity, inhibitor, fluorescence			IC50	3.36 µM and 3.38 µM
CN(C)c1ccc(NC(=O)CCCCCNC(=O)CS)cc1	HDAC10 (Homo sapiens, UniProt Q969S8)	enzyme activity, inhibitor			IC50	17.7 µM
Nc1ncnc2c1ncn2[C@@H]1O[C@H](CSCCNC(=O)NCCc2ccccc2)[C@@H](O)[C@H]1O	DNMT1 (Homo sapiens, UniProt P26358)	enzyme activity, inhibitor, radiometric			IC50	> 50 µM
CC[C@@H]1NC(=O)[C@H]([C@H](O)[C@H](C)Cc2nc3ccc(C(=O)c4ccccc4)cc3[nH]2)N(C)C(=O)[C@H](C(C)C)N(C)C(=O)[C@H](CC(C)C)N(C)C(=O)[C@H](CC(C)C)N(C)C(=O)[C@@H](C)NC(=O)[C@H](C)NC(=O)[C@H](CC(C)C)N(C)C(=O)[C@H](C(C)C)NC(=O)[C@H](CC(C)C)N(C)C(=O)CN(C)C1=O	PPIA/Calcineurin subunit B type 1/PPP3CA (Homo sapiens, UniProt P62937+P63098+Q08209)	enzyme activity, inhibitor			IC50	~10 µM
N[C@H](C(=O)N1CCCC1)C1CCN(c2nccc3c(-c4ncc(Cl)cc4Cl)cccc23)CC1	PADI1 (Homo sapiens, UniProt Q9ULC6)	enzyme activity, inhibitor, absorbance			IC50	0.109 µM

A few entries again:
Compound	tested on	assay	system	setting	endpoint	result
CCCN1CCc2cccc3c2[C@H]1Cc1ccc(O)c(O)c1-3	Carbamate kinase (Giardia intestinalis, UniProt A8BB85)	enzyme activity, ATP luminescence			IC50	10.3 µM
CC(C)C[C@H](NC(=O)[C@@H](NC(=O)[C@H](CCC(N)=O)NC(=O)CNC(=O)[C@H](CO)NC(=O)[C@H](Cc1ccccc1)NC(=O)[C@@H](N)CC(C)C)C(C)C)C(=O)O	ACE (Homo sapiens, UniProt P12821)	enzyme activity, inhibitor, HPLC			IC50	647 µM
COc1c(OCCOCCOCCOCCOCCOCCOc2cccc(C(=O)C3CCN(CCc4ccc(F)cc4)CC3)c2OC)cccc1C(=O)C1CCN(CCc2ccc(F)cc2)CC1	HTR2A (Homo sapiens, UniProt P28223)	phosphorylation in cells, antagonist			IC50	0.164 µM
COc1ccccc1-c1nc2sc3c(c2c(=O)o1)CCC3	Procathepsin L (CTSL, Homo sapiens, UniProt P07711)	enzyme activity, inhibitor, FRET			IC50	> 100 µM
